Assay results collected from several papers.
Each numbered part is a random draw from the data of one study; scales do not carry over between parts. Positions count from the first letter of the parent shown.

Block 1 — technique: RNA Bind-n-Seq; molecule type: RNA; medium: in vitro; tested at: 1 µM; setting: whole 134-nt RNA, ends assumed; added: 150 mM KCl; reference: input library; reading: higher = stronger binding
Target: Ras GTPase-activating protein-binding protein 1, RRM domain (G3BP1, Homo sapiens, UniProt Q13283)
Sequence of UniProt Q13283 (whole entry, looked up): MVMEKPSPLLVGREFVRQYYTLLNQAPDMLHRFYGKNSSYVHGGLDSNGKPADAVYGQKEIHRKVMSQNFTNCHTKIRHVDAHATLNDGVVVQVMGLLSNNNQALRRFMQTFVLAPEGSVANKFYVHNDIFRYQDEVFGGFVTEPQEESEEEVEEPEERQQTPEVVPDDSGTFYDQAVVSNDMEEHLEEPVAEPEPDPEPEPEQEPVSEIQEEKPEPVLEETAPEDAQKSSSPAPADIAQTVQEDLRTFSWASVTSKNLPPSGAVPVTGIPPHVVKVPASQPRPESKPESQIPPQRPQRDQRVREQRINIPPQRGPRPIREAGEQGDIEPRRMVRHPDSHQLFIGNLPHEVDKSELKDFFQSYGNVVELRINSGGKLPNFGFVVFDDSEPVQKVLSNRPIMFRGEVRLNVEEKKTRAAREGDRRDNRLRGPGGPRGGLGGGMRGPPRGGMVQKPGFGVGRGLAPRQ
The log2 enrichment of `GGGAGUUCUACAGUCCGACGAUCAGUCCUGUGCUACACAUCGUAUGUACCGAAUCGGUUUUUUUGGAAAAAGGUUUUUGGAAAGUAUUAUGUUACGCCGUUCGGAUCUGCACUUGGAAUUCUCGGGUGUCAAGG` is reported as -0.567.
The log2 enrichment of `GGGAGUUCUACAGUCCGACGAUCCACAGACAACACGCACCCACACAGACACAUAGGGAAGGGGUUGGGAUGGGGACAGGGUGCACAGCAGGGCGGGGUAGGACCCCAGCCCCUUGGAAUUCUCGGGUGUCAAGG` is reported as 0.273.
For `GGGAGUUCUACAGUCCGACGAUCGUCCUGUGCUACACAUCGUAUGUACCGAAUCGGGUGGGAAAAAAAGGGAAAAAAAGGGAAAGUAUUAUGUUACGCCGUUCGGAUCUGCACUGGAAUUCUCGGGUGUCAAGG`, the log2 enrichment was 0.497.
`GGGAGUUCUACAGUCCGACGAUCGCAGGAAGUAAAAACAAAUGGAAAUGCUUCGGAUAGUGGCAGGGGUGGGGGUUGCUAAGGAAAGGGUGGGAUGGGAGUGGGUUAAGAGUUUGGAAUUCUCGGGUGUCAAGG` gave a log2 enrichment of 0.238.
For `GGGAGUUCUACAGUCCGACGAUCUCCUGUGCUACACAUCGUAUGUACCGAAUCGGCCCCCCCGGCCCCCCCGGGCCCCCCCGGAAAGUAUUAUGUUACGCCGUUCGGAUCUGCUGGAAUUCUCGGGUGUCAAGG`, the log2 enrichment was -0.472.
`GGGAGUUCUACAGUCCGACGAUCUCUCUUAUGCUAUUGGAGUUUCUCAUCCAUUAUCUAUCUCCAUUUUCCAUUAUGGUACCUCUCAGAAGAGUGAGAGAGAGCUAUUAGAGAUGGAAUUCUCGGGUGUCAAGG` gave a log2 enrichment of -0.213.
`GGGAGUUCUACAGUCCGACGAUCCACAGACAACACGCACCCACACAGGCACAGAGGGAAGGGGUUGGGAUGGGGACAGGGUGCACAGCAGGGCGGGGUAGGACCCCAGCCCCUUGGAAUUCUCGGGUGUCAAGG` gave a log2 enrichment of -0.0634.

Block 2 — target: CCND2, cyclin fold, Cln2 fusion (human); technique: yeast growth competition, sequencing; medium: yeast; setting: strong parent motif; reference: not given; reading: higher = stronger binding
Starting sequence: INSM1 docking peptide (human); PKAIRKLHFEDEV; partner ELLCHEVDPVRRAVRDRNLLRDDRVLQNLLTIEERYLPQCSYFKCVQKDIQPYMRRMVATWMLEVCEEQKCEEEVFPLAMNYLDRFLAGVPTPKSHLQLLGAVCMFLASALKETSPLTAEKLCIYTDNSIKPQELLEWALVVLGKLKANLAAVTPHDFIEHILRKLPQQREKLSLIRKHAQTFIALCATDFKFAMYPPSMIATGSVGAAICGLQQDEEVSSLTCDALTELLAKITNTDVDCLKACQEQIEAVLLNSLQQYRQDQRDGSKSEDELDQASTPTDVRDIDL
For `PKAIRKLHFEDHV [E12H]`, “normalised enrichment score” read 2.17.
`PKAIRKLHFLDEV [E10L]` — result for “normalised enrichment score”: 1.08.
Under “normalised enrichment score”, `PKAIRKLHFEEEV [D11E]` is recorded as 2.37.
Under “normalised enrichment score”, `PVAIRKLHFEDEV [K2V]` is recorded as 1.19.
`PKAIRCLHFEDEV [K6C]`: “normalised enrichment score” 1.96.
Under “normalised enrichment score”, `PKAIRKLHFADEV [E10A]` is recorded as 1.25.
`PKAIRKLHFQDEV [E10Q]`: “normalised enrichment score” 1.34.
Under “normalised enrichment score”, `PKAIIKLHFEDEV [R5I]` is recorded as 0.495.
Under “normalised enrichment score”, `PKAIRKLAFEDEV [H8A]` is recorded as 2.25.
`PKAIRKLHYEDEV [F9Y]`: “normalised enrichment score” 0.307.

Block 3 — technique: protein binding microarray; molecule type: double-stranded DNA, one strand shown; medium: in vitro; tested at: not given; reference: not given; reading: higher = stronger binding
Target: Histone acetyltransferase KAT6A, winged helix 1, GST fusion (KAT6A, Homo sapiens, UniProt Q92794, residues 1-85)
Setting: 8-mer, flanks averaged, mean of 2 arrays, mostly near background
Target sequence (chain): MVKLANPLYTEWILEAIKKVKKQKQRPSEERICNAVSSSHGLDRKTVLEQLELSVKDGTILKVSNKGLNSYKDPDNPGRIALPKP
`CGAATGAA` has an E-score of -0.121.
`ACGTGCTC` gave an E-score of -0.115.
With `AATACCAG` the E-score was -0.208.
The E-score of `GTAGTATA` is reported as 0.121.
`AACGATGA` gave an E-score of -0.0761.
With `ATCTAGAA` the E-score was -0.216.

Further values, each from its own experiment
For `PhoQ, residues 284 288 289 292 302 303 SCKMEA`, the fold induction was 0.746 (PhoP, residues 12 14 15 18 19 NIMAP (Escherichia coli, UniProt P23836); Sort-seq, refers to: YFP reporter; E. coli; PhoQ-PhoP variant library, added: 10 µM Mg2+; reference: high Mg2+ state, higher = stronger signaling).
